{"data": "Measured values of several laboratories", "note": "Lines come from different studies, so protocols differ. Several values in a cell are separate wells, animals, samples, runs or records. ± gives the spread as reported."}
{"Structure (SMILES)": "C[C@]1(c2nc3c(C(N)=O)cccc3[nH]2)CCCN1", "system": "human patients", "setting": "added: topotecan", "quantity": "MTD", "result": "10 mg twice daily"}
{"Structure (SMILES)": "CC(C)(c1ccc(O)cc1)c1ccc(O)cc1", "assay": "ultrafiltration", "system": "cow milk whey", "setting": "2000 nM nominal in whole milk", "quantity": "final permeate concentration", "result": "83.9 nM"}
{"Structure (SMILES)": "COc1cc(C2C3=C(COC3=O)N(CCO)c3cc4c(cc32)CCC4)cc(OC)c1OC (stereo not drawn)", "system": "female C57BL/6 mice", "setting": "intraperitoneal, 200 mg/kg, 0 h, single dose, mean", "quantity": "body weight", "result": "23 g"}
{"Structure (SMILES)": "CCN1[C@@H](C(=O)NC23CCC(C(=O)O)(CC2)CC3)[C@H](c2cccc(Cl)c2F)[C@]2(C(=O)Nc3cc(Cl)ccc32)C12CCCCC2", "system": "patients with advanced solid tumours", "setting": "oral, 100 mg", "quantity": "Ageusia incidence", "result": "0%"}
{"Structure (SMILES)": "Nc1nc2cc(-c3ccc4ncc(C(=O)N5CCOCC5)n4c3)ccc2o1", "system": "human, advanced solid tumours", "setting": "intermittent schedule", "quantity": "MTD", "result": "900 mg"}
{"Structure (SMILES)": "CCc1ccc(CC/C=C/c2ccc3c(c2)C(=O)CC3)cc1", "system": "Sprague-Dawley rat, male", "setting": "oral, 30 mg/kg/day, 14 days", "quantity": "TC", "result": "1.65 mM"}
{"Structure (SMILES)": "COc1ccc2nc3cc(Cl)ccc3c(Nc3cc(CN4CCCC4)c(O)c(CN4CCCC4)c3)c2n1", "system": "mouse, blood", "setting": "oral, 57 mg/kg, tolerability, mean", "quantity": "mean corpuscular volume", "result": "39.4 fL"}
{"Structure (SMILES)": "C[C@H]1COCCN1c1nc(NCc2cccnc2C(F)(F)F)c2cccnc2n1", "system": "male CD-1 mouse, femur bone marrow", "setting": "oral, 1000 mg/kg twice, 48 h, dosing interval 24 h", "quantity": "micronucleated PCE per 2000 PCE", "result": "0 and 4 and 1"}
{"Structure (SMILES)": "COc1cc2c(Oc3ccc4[nH]c(C)cc4c3F)ccnc2cc1OCC1(N)CC1", "system": "paediatric recurrent refractory sarcoma", "setting": "8 mg", "quantity": "grade 3 Hypertension", "result": "0%"}
{"Structure (SMILES)": "CCS(=O)(=O)Nc1ccc(Oc2ccc(F)cc2F)c(-c2cn(C)c(=O)c3[nH]ccc23)c1", "assay": "fungal pneumonia leading to discontinuation", "system": "human, relapsed/refractory AML", "setting": "oral, dose not given", "quantity": "treatment-emergent adverse events", "result": "5%"}
{"Structure (SMILES)": "O=S(=O)(Nc1ccccc1)c1ccc(NC(=S)Nc2ccccc2)cc1", "assay": "item: EO%", "system": "male mouse, blood", "setting": "oral, 80 mg/kg daily, 14 days", "quantity": "blood cell fraction", "result": "1.12%"}
{"Structure (SMILES)": "Cc1c(COC(=O)[C@@H]2[C@H](/C=C(\\Cl)C(F)(F)F)C2(C)C)cccc1-c1ccccc1 (racemic)", "assay": "item: CYP3A4", "system": "human, age 1 year, recombinant human CYP3A4", "setting": "0.1 µM", "quantity": "enzyme contribution to clearance", "result": "16.3%"}
{"Structure (SMILES)": "CC(=O)c1c(C)c2cnc(Nc3ccc(C4CCN(CCS(C)(=O)=O)CC4)cn3)nc2n(C2CCCC2)c1=O", "system": "human, plasma", "setting": "oral, 25 mg once daily, day 21, multiple doses", "quantity": "AUC(0-inf)", "result": "397 ng·h/mL"}
{"Structure (SMILES)": "[O-][S+]1CCc2nc(N3CCC(c4ncc(Cl)cn4)CC3)nc(NC3(CO)CCC3)c21 (stereo not drawn)", "system": "idiopathic pulmonary fibrosis patients", "setting": "18 mg twice daily", "quantity": "Pharyngitis adverse events", "result": "0%"}
{"Structure (SMILES)": "O=C(Nc1ccccc1)C1CCN(C(=O)Oc2cccnc2)CC1", "assay": "item: reproductive and breast disorders", "system": "healthy women", "setting": "oral, 100 mg, 9 days", "quantity": "subjects with adverse event", "result": "0%"}
{"Structure (SMILES)": "O=c1nc(NO)ccn1[C@@H]1O[C@H](CO)[C@@H](O)[C@H]1O", "system": "rat amniotic fluid dialysate", "setting": "25 ng/mL, more than 4 weeks, -20 °C, low concentration, added: molnupiravir 5 ng/mL", "quantity": "long-term stability", "result": "102 ± 2.59%"}
{"Structure (SMILES)": "C=CC(=O)Nc1cc(Nc2nccc(Nc3cc(Cl)c(F)cc3C(C)(C)O)n2)c(OC)cc1N1CC[C@@H](N(C)C)C1", "system": "human patients", "setting": "oral, 50 mg, treatment-emergent adverse events", "quantity": "patients with dizziness", "result": "0%"}
{"Structure (SMILES)": "C[C@H]1C[C@@H](N2C(=N)N[C@](C)(c3cccc(NC(=O)c4cccc(C#N)c4)c3Cl)CC2=O)CCO1", "system": "rat", "setting": "1000 mg/kg, every other day", "quantity": "triglycerides change", "result": "-43%"}
{"Structure (SMILES)": "CC(C)C[C@H](NC(=O)[C@H](CCCCN)NC(=O)OCC1c2ccccc2-c2ccccc21)C(=O)N[C@H](C(=O)N[C@@H](Cc1ccccc1)C(=O)N[C@@H](Cc1ccccc1)C(=O)N[C@@H](CCCCN)C(=O)NCC(=O)N[C@@H](Cc1ccccc1)C(=O)N[C@@H](C)C(=O)N[C@@H](Cc1c[nH]c2ccccc12)C(=O)N[C@@H](CC(N)=O)C(=O)N[C@H](C(=O)N[C@H]1CSSC[C@@H](C(=O)N[C@@H](Cc2c[nH]cn2)C(=O)N[C@@H](CCCNC(=N)N)C(=O)N[C@@H](CCCNC(=N)N)C(=O)N[C@@H](C)C(=O)N[C@@H](CC(N)=O)C(N)=O)NC(=O)[C@H](C(C)C)NC(=O)[C@H](CCCNC(=N)N)NC(=O)[C@H](C(C)C)NC(=O)CNC(=O)[C@H](CC(N)=O)NC(=O)[C@H](CCCNC(=N)N)NC(=O)[C@H](Cc2ccc(O)cc2)NC(=O)[C@H](C(C)C)NC1=O)C(C)C)C(C)C", "system": "ICR mouse, blood", "setting": "intramammary, 10 mg/kg, day 5, 3 d dosing", "quantity": "basophils", "result": "1.57 ± 0.18%"}
{"Structure (SMILES)": "C=CCNc1c(O)cc2c(O)c1C[C@@H](C)C[C@H](OC)[C@H](O)[C@@H](C)/C=C(\\C)[C@H](OC(N)=O)[C@@H](OC)/C=C\\C=C(/C)C(=O)N2", "system": "unresectable or metastatic STS, GIST, other", "setting": "intravenous, 400 mg/m^2", "quantity": "patients with nausea TEAE", "result": "53%"}
{"Structure (SMILES)": "C[C@@H](NC(=O)N1C(=O)[C@H](Cc2ccnc(N)c2)[C@H]1C(=O)O)C1CCCCC1", "system": "healthy adult Chinese volunteers", "setting": "continuous intravenous infusion, 1.5 mg/kg/h, 5-day infusion, CTCAE 5.0 grading", "quantity": "incidence of decreased neutrophil", "result": "0%"}
{"Structure (SMILES)": "COC[C@@H](CC(C)C)NC(=O)c1ccc(C)c(C)c1", "system": "Hsd:ICR (CD-1) mouse, male, bone marrow", "setting": "oral, 500 mg/kg, 24 h", "quantity": "micronucleated PCE per 1000 PCE", "result": 0.2}
{"Structure (SMILES)": "C=CC(=O)N1CC[C@H](n2nc(C#Cc3cc(OC)cc(OC)c3)c3c(N)ncnc32)C1", "system": "patients with advanced solid tumours", "setting": "oral, dose not given, Diarrhea, any grade, QD, all patients", "quantity": "adverse drug reaction incidence", "result": "16.3%"}
{"Structure (SMILES)": "Oc1ccc(CCc2cc(O)cc(O)c2)cc1", "system": "human, cerebrospinal fluid", "setting": "dose not given, mean", "quantity": "CSF concentration", "result": "not detected"}
{"Structure (SMILES)": "Cn1cc(-c2nc(N[C@@H]3CCCC[C@@H]3N)c(F)c3c2C(=O)NC3)cn1", "assay": "item: Melaena", "system": "patients with relapsed or refractory AML", "setting": "oral, 60 mg twice daily", "quantity": "hemorrhagic adverse events", "result": "13%"}
{"Structure (SMILES)": "CO[C@H]1C[C@@H]2CC[C@@H](C)[C@@](O)(O2)C(=O)C(=O)N2CCCC[C@H]2C(=O)O[C@H]([C@H](C)C[C@@H]2CC[C@@H](OC(=O)NCCOCCOCCOCCOCCOCCOCCOCCOCCC(=O)N3CCc4cc(Cn5nc(-c6ccc7oc(N)nc7c6)c6c(N)ncnc65)ccc4C3)[C@H](OC)C2)C[C@@H](O)[C@H](C)/C=C(\\C)[C@@H](O)[C@@H](OC)C(=O)[C@H](C)C[C@H](C)/C=C/C=C/C=C/1C", "system": "patients with advanced solid tumours", "setting": "intravenous, dose not given, grade ≥3", "quantity": "Mucositis AE leading to dose reduction", "result": "0%"}
{"Structure (SMILES)": "CN(C(=O)n1cnc(-c2ccc[n+]([O-])c2)c1)C1CCCCC1", "system": "Wistar rat, pons", "setting": "oral, 10 mg/kg/day, 24 h, repeated 5 days", "quantity": "concentration", "result": "14 ± 0.7 ng/g"}
{"Structure (SMILES)": "C=CC[N+]1([C@H]2C[C@H]3[C@@H]4CC[C@H]5C[C@H](O)[C@@H](N6CCOCC6)C[C@]5(C)[C@H]4CC[C@]3(C)[C@H]2OC(C)=O)CCCC1", "system": "Sprague Dawley rat, plasma", "setting": "intravenous, dose not given, added: sugammadex 5 mg/kg ODD", "quantity": "terminal half-life", "result": "24.5 min"}
{"Structure (SMILES)": "NCCCC[C@@H]1NC(=O)[C@@H](Cc2c[nH]c3ccccc23)NC(=O)[C@H](c2ccccc2)NC(=O)[C@@H]2C[C@@H](OC(=O)NCCN)CN2C(=O)[C@H](Cc2ccccc2)NC(=O)[C@H](Cc2ccc(OCc3ccccc3)cc2)NC1=O", "system": "healthy human volunteers", "setting": "600 µg twice daily", "quantity": "subjects with abdominal pain", "result": "17%"}
{"Structure (SMILES)": "CCCCN1CCC(COC(=O)c2ccc(N)c(O[11CH3])c2)CC1", "assay": "PET", "system": "rhesus monkey, striatum", "quantity": "peak uptake", "result": "4 to 7 SUV"}
{"Structure (SMILES)": "Oc1cc(Cl)c(-c2ccc(Cl)cc2Cl)c(Cl)c1O", "assay": "metabolism, GC-MS", "system": "female beagle dog liver microsomes", "setting": "50 µM, 2 h, 37 °C", "quantity": "metabolite formation", "result": "not detected"}
{"Structure (SMILES)": "CC(C)[C@@H]1NC(=O)CNC(=O)[C@H](CC(N)=O)NC(=O)[C@H](CCCNC(=N)N)NC(=O)[C@H](Cc2ccc(O)cc2)NC(=O)[C@H](C(C)C)NC(=O)[C@@H](NC(=O)[C@@H](NC(=O)[C@H](CC(N)=O)NC(=O)[C@H](Cc2c[nH]c3ccccc23)NC(=O)[C@H](C)NC(=O)[C@H](Cc2ccccc2)NC(=O)CN)C(C)C)CSSC[C@@H](C(=O)N[C@@H](Cc2c[nH]cn2)C(=O)N[C@@H](CCCNC(=N)N)C(=O)N[C@@H](CCCNC(=N)N)C(=O)N[C@@H](C)C(=O)N[C@@H](CC(N)=O)C(N)=O)NC(=O)[C@H](C(C)C)NC(=O)[C@H](CCCNC(=N)N)NC1=O", "assay": "circular dichroism, item: β-Turn", "system": "PBS", "setting": "80 µM, pH 7.4", "quantity": "secondary structure content", "result": "21.6%"}
{"Structure (SMILES)": "C[C@]1(CO)Cc2ncn(-c3ccc(C#N)c(Cl)c3)c2C(=O)O1", "system": "human, Chinese", "setting": "60 mg single dose", "quantity": "subjects with drug-related headache", "result": "0%"}
{"Structure (SMILES)": "CN1CCN(S(=O)(=O)c2cc([N+](=O)[O-])ccc2N(CCOS(C)(=O)=O)CCOS(C)(=O)=O)CC1", "system": "naive NOD/SCID mice, pooled blood", "setting": "intraperitoneal, 12.5 mg/kg, week 4", "quantity": "albumin", "result": "43 g/L"}
{"Structure (SMILES)": "Cn1cncc1-c1c(F)cncc1NC(=O)c1c(N)nn2cc(F)cnc12", "system": "human patients", "setting": "oral, 220 mg once daily, 21 days, 2 weeks on 1 week off", "quantity": "patients with upper GI haemorrhage DLT", "result": "0%"}
{"Structure (SMILES)": "COc1ncccc1-c1cnn2ccc(N3CCN(C(=O)OC(C)C)CC3)nc12", "system": "mouse, SNL model, plasma", "setting": "oral, 60 mg/kg, 120 min", "quantity": "free drug concentration", "result": "280 nM"}
